# Measured values from different studies.
# Compare with care: the assays were run in different laboratories. Numbers after ± are the reported error.
Structure (SMILES),test,system,setting,tissue uptake
CCCC[C@@H]1NC(=O)[C@@H](NC(=O)[C@H](CCC(=O)O)NC(=O)CNC(=O)CN2CCN(CC(=O)O)CCN(CC(=O)O)CCN(CC(=O)O)CC2)CCCCNC(=O)C[C@@H](C(N)=O)NC(=O)[C@H](C(C)C)NC(=O)[C@@H]2CCCN2C(=O)[C@H](CCCNC(=N)N)NC(=O)CNC(=O)[C@H](Cc2c[nH]c3ccccc23)NC(=O)[C@H](CCCNC(=N)N)NC(=O)[C@@H](Cc2ccccc2)NC(=O)[C@H](Cc2c[nH]cn2)NC(=O)[C@H](CCC(=O)O)NC1=O [gallium-67 labelled],,"C57 mice with B16/F1 melanoma, muscle","intravenous, 0.037 MBq, 0.5 h",0.46 ± 0.28 %ID/g
CC(C)[C@H](NC(=O)[C@@H]1CCCN1C(=O)[C@H](CCCNC(=N)N)NC(=O)[C@H](CS)NC(=O)[C@H](Cc1c[nH]c2ccccc12)NC(=O)[C@H](CCCNC(=N)N)NC(=O)[C@@H](Cc1ccccc1)NC(=O)[C@H](Cc1c[nH]cn1)NC(=O)[C@H](CCC(=O)O)NC(=O)[C@H](CS)NC(=O)[C@H](CS)NC(=O)[C@@H]1CC(=O)N[C@@H](CCCNC(=N)N)C(=O)NCC(=O)N[C@@H](CC(=O)O)C(=O)N[C@H](Cc2ccc(O)cc2)C(=O)N1)C(N)=O [technetium-99m labelled],,"C57 mouse, female, B16/F1 melanoma, bone","intravenous, 0.037 MBq, 0.5 h",3.03 ± 0.97 %ID/g
CCCC[C@H](NC(=O)CNC(=O)CNC(=O)CN1CCN(CC(=O)O)CCN(CC(=O)O)CCN(CC(=O)O)CC1)C(=O)N[C@H]1CC(=O)NCCCC[C@@H](C(N)=O)NC(=O)[C@H](Cc2c[nH]c3ccccc23)NC(=O)[C@H](CCCNC(=N)N)NC(=O)[C@@H](Cc2ccccc2)NC(=O)[C@H](Cc2c[nH]cn2)NC1=O [gallium-67 labelled],,"female C57 mice, B16/F1 melanoma, pancreas","intravenous, 0.037 MBq, 0.5 h",0.83 ± 0.26 %ID/g
CC(C)[C@H](NC(=O)[C@@H]1CCCN1C(=O)[C@H](CCCNC(=N)N)NC(=O)[C@H](CS)NC(=O)[C@H](Cc1c[nH]c2ccccc12)NC(=O)[C@H](CCCNC(=N)N)NC(=O)[C@@H](Cc1ccccc1)NC(=O)[C@H](Cc1c[nH]cn1)NC(=O)[C@H](CCC(=O)O)NC(=O)[C@H](CS)NC(=O)[C@H](CS)NC(=O)CNC(=O)[C@@H]1CC(=O)N[C@@H](CCCNC(=N)N)C(=O)NCC(=O)N[C@@H](CC(=O)O)C(=O)N[C@H](Cc2ccc(O)cc2)C(=O)N1)C(N)=O [technetium-99m labelled],,"C57 mouse, female, B16/F1 melanoma, brain","intravenous, 0.037 MBq, 2 h",0.07 ± 0.02 %ID/g
CCCC[C@H](NC(=O)CNC(=O)CNC(=O)CN1CCN(CC(=O)O)CCN(CC(=O)O)CCN(CC(=O)O)CC1)C(=O)N[C@H]1CC(=O)NCCCC[C@@H](C(N)=O)NC(=O)[C@H](Cc2c[nH]c3ccccc23)NC(=O)[C@H](CCCNC(=N)N)NC(=O)[C@@H](Cc2ccccc2)NC(=O)[C@H](Cc2c[nH]cn2)NC1=O [copper-64 labelled],,"C57 mouse female B16/F1 melanoma, intestines","intravenous, 0.037 MBq, 24 h",6.63 ± 0.51 %ID
C[C@H](CN(C)Cc1ccccc1)NC(=O)c1ccc(-c2noc(C(F)(F)[18F])n2)cc1,PET imaging,"female Sprague-Dawley rats, heart","intravenous, 10 min",0.51 ± 0.27 SUV
CCCC[C@H](NC(=O)CNC(=O)CNC(=O)CN1CCN(CC(=O)O)CCN(CC(=O)O)CC1)C(=O)N[C@H]1CC(=O)NCCCC[C@@H](C(N)=O)NC(=O)[C@H](Cc2c[nH]c3ccccc23)NC(=O)[C@H](CCCNC(=N)N)NC(=O)[C@@H](Cc2ccccc2)NC(=O)[C@H](Cc2c[nH]cn2)NC1=O [copper-64 labelled],,"C57 mouse B16/F1 melanoma, stomach",4 h,1.02 ± 0.17 %ID/g
CCN(CC)c1ccc2c(-c3ccccc3C(=O)OCCOCCOCC[18F])c3ccc(=[N+](CC)CC)cc-3oc2c1,,"rat, blood",60 min,0.19 ± 0.01 %ID/g
O=C(O)C1CN(Cc2ccc(-c3noc(-c4ccc(OCC[18F])c(C(F)(F)F)c4)n3)cc2)C1,,"male Sprague-Dawley rat, spleen","intravenous, 30 min",0.282 ± 0.03 %ID/g
NC12CNCCNCC(NCc3ccc(CNC(=O)CCCC(=O)NCc4ccc(-c5nncnn5)cc4)cc3)(CNCCNC1)CNCCNC2.[64Cu+2],biodistribution,"healthy athymic nude mice, kidneys",1 h p.i.,2.3 ± 0.4 %ID/g
CN1C(=O)[C@@H](Cc2ccc(O)c(I)c2)NC(=O)CNC(=O)[C@H](Cc2ccc3ccccc3c2)NC(=O)[C@H](CCCNC(=N)N)NC(=O)[C@H]1CCCNC(=O)c1ccc(CNC(=O)CN2CCN(CC(=O)O)CCN(CC(=O)O)CCN(CC(=O)O)CC2)cc1 [lutetium-177 labelled],,"female CB-17 SCID mouse, Daudi xenograft, adrenals","intravenous, 6 h, CXCR4 blocking, added: AMD3100 2 mg/kg coinjected",0.51 ± 0.01 %ID/g

# For quick reference, copied from above:
Structure (SMILES),test,system,setting,tissue uptake
CC(C)[C@H](NC(=O)[C@@H]1CCCN1C(=O)[C@H](CCCNC(=N)N)NC(=O)[C@H](CS)NC(=O)[C@H](Cc1c[nH]c2ccccc12)NC(=O)[C@H](CCCNC(=N)N)NC(=O)[C@@H](Cc1ccccc1)NC(=O)[C@H](Cc1c[nH]cn1)NC(=O)[C@H](CCC(=O)O)NC(=O)[C@H](CS)NC(=O)[C@H](CS)NC(=O)[C@@H]1CC(=O)N[C@@H](CCCNC(=N)N)C(=O)NCC(=O)N[C@@H](CC(=O)O)C(=O)N[C@H](Cc2ccc(O)cc2)C(=O)N1)C(N)=O [technetium-99m labelled],,"C57 mouse, female, B16/F1 melanoma, bone","intravenous, 0.037 MBq, 0.5 h",3.03 ± 0.97 %ID/g
